# Measured values gathered from unrelated publications.
# Each line is one published result; not all experiments were run side by side.
# Target: Alpha-glucosidase MAL12 (MAL12, Saccharomyces cerevisiae S288c, UniProt P53341)
# UniProt P53341, sequence (whole entry, looked up): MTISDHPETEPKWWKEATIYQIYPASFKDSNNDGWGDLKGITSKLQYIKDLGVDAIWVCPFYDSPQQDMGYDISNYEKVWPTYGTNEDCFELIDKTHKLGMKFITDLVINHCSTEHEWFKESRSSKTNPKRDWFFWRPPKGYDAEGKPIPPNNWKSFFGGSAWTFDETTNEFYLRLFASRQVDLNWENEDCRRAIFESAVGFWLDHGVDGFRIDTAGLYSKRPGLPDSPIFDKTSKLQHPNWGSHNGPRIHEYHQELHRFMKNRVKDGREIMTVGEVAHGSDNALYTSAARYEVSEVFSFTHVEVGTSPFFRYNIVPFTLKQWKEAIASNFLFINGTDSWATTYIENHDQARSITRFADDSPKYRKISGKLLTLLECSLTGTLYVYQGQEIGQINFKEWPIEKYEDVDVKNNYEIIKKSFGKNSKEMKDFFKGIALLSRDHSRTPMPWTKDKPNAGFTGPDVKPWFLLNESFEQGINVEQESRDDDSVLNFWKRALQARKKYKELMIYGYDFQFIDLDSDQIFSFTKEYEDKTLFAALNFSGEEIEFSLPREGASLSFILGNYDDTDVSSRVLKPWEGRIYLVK
Compound,test,conditions,endpoint,value
Cc1cccc(/C=C/C(=O)c2cnn(-c3ccccc3)c2C)c1,"enzyme activity, inhibitor",500 µM,inhibition,71.1%
COc1cc(-c2oc3cc(O)cc(O)c3c(=O)c2OC)ccc1O,"enzyme activity, inhibitor",250 µM,inhibition,> 99%
Cc1ccc(/C=N/N=C(c2ccc(N(C)C)cc2)c2ccc(N(C)C)cc2)cc1,"enzyme activity, inhibitor","concentration not given, pH 6.8, 37 °C, with: p-nitrophenyl alpha-D-glucopyranoside",activity,inactive
O=C1C(=O)N(CCOc2ccc(Br)cc2)c2ccc(Cl)cc21,"enzyme activity, inhibitor","500 µM, pH 6.8",inhibition,91.9%
COc1c(-c2cccc(O)c2)oc2c(OC)c(O)cc(O)c2c1=O,"enzyme activity, inhibitor, absorbance",25 µM,inhibition,92.2%
O=C1C(=O)N(CCOc2ccc(Br)cc2)c2ccc(Br)cc21,"enzyme activity, inhibitor","500 µM, pH 6.8",inhibition,93.3%
O=C1OCC(Cc2ccccc2)C1c1ccccc1 (stereo not drawn),enzyme activity,with: p-nitrophenyl glucoside,Vmax,1.45 mM/min
O=C1C(=O)N(CCOc2ccc(Cl)cc2)c2ccc(Cl)cc21,"enzyme activity, inhibitor","500 µM, pH 6.8",inhibition,78.2%
O=C(/C=C/c1ccc(O)c2oc(-c3ccc(O)c(O)c3)cc12)O[C@H](Cc1ccc(O)c(O)c1)C(=O)O,inhibitor,with: 4-nitrophenyl α-glucopyranoside,Ki uncompetitive,8.8 µM

# Repeated from above:
Compound,test,conditions,endpoint,value
O=C(/C=C/c1ccc(O)c2oc(-c3ccc(O)c(O)c3)cc12)O[C@H](Cc1ccc(O)c(O)c1)C(=O)O,inhibitor,with: 4-nitrophenyl α-glucopyranoside,Ki uncompetitive,8.8 µM
